Assay results collected from several papers.
A part holds a random share of what one study measured. Substitutions count along the parent as printed.

Series 1
Target: CEP164, C-terminal peptide (human)
Method: DHFR complementation, deep sequencing
Medium: yeast
Notes: single substitutions, model-inferred values
Relative to: wild type
Direction: higher = weaker binding
Quantity: binding free energy change
Parent: PDZK1, PDZ domain 2 (human); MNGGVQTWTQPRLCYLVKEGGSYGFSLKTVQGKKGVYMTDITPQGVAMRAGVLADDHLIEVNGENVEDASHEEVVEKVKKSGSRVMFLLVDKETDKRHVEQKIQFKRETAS; partner HNRVKVYRF
A50R: 0.491 kcal/mol
R84G: 0.406 kcal/mol
E76Y: 0.188 kcal/mol
G3V: -0.0477 kcal/mol
R49C: 0.366 kcal/mol
V61E: 0.43 kcal/mol
S81F: 0.761 kcal/mol
H71F: -1.52 kcal/mol
S22K: 0.205 kcal/mol
G45I: 1.39 kcal/mol
G63S: 0.215 kcal/mol
D91A: -0.129 kcal/mol
Y37P: 1.36 kcal/mol
Q104T: -0.111 kcal/mol

Series 2
Molecule: PhoQ, residues 284 288 289 292 302 303 SNGLAW
Method: Sort-seq
Item: YFP reporter
Medium: E. coli
Notes: PhoQ-PhoP variant library
With: 10 µM Mg2+
Relative to: high Mg2+ state
Direction: higher = stronger signaling
Quantity: fold induction
PhoP, residues 12 14 15 18 19 TPWTL (Escherichia coli, UniProt P23836): 12.1
PhoP, residues 12 14 15 18 19 VGHWL (Escherichia coli, UniProt P23836): 8.52
PhoP, residues 12 14 15 18 19 NFFVT (Escherichia coli, UniProt P23836): 7.22
PhoP, residues 12 14 15 18 19 LHHYF (Escherichia coli, UniProt P23836): 7.12

Series 3
Target: Ras GTPase-activating protein-binding protein 1, RRM domain (G3BP1, Homo sapiens, UniProt Q13283)
Sequence of UniProt Q13283 (whole entry, looked up): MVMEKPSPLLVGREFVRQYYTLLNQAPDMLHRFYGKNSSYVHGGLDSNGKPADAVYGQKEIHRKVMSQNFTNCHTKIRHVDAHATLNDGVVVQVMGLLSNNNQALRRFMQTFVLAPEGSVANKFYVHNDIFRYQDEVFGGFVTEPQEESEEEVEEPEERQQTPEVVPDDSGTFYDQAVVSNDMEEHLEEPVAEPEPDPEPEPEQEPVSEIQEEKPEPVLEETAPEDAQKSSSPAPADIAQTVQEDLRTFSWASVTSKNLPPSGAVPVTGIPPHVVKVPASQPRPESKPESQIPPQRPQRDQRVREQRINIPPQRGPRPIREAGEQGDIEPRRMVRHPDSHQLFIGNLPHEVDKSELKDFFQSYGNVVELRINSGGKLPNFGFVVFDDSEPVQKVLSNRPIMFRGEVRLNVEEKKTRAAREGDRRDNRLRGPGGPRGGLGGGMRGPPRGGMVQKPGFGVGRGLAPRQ
Method: RNA Bind-n-Seq
Molecule type: RNA
Medium: in vitro
Concentration: 1 µM
Notes: whole 134-nt RNA, ends assumed
With: 150 mM KCl
Relative to: input library
Direction: higher = stronger binding
Quantity: log2 enrichment
Constant ends, left off below: GGGAGUUCUACAGUCCGACGAUC … UGGAAUUCUCGGGUGUCAAGG
UCCUGUGCUACACAUCGUAUGUACCGAAUCGGGUUUUUUUGGGAAAGGGUUUUUUUGGGAAAGUAUUAUGUUACGCCGUUCGGAUCUGCA: -0.0796
UGGGAGGUGGAUUUUGUUUAUUUUUUUAGCUCAUUUCCAGGGGUGGGAAUUUUUUUUUAAUAUGUGUCAUGAAUAAAGUUGUUUUUGAUA: 1.16
CCUCAAGUCCUGUGCUACACAUCGUAUGUACCGAAUCGGAAAGGUGGAAAGGAAAGUAUUAUGUUACGCCGUUCGGAUCUGCACUUCCAG: -0.0954
AUGAAGAUGAAGAAGAGGAUGAUGAGGACGAGGAUGACGACGACGACGAAGAUGAUGAAGAUGAUGAUGAUGAAGAUGAUGAGGAGGAGG: -0.0947
UGUGGACGACAAUGAGGAGACCAUCAAAAAGCGGCUGGAGACCUAUUACAAGGCCACAGAACCUGUCAUCGCCUUCUAUGAGAAACGUGG: -0.0412
CCUCAAGUCCUGUGCUACACAUCGUAUGUACCGAAUCGGGAGGGAGGGAGGGAAAGUAUUAUGUUACGCCGUUCGGAUCUGCACUUCCAG: 1.08
ACCAUGCAGGUGGGCAUCUUUGGGAAGUGGGGCAAGGGGGGGAUAGGGAGGGGGGUAACACUUUGGGAACAGGUGGUCCUAGGUCGUUUC: 0.689
UCCUGUGCUACACAUCGUAUGUACCGAAUCGGUUUUUUGGGGUUUUUUGGGGUUUUUUGGAAAGUAUUAUGUUACGCCGUUCGGAUCUGC: -0.108
CACAGACAACACGCACCCACACAGACACAGAGGGAAGGAAAUGGGAUGGGGACAGGGUGCACAGCAGGGCGGGGUAGGACCCCAGCCCCU: 0.0667

Series 4
Target: CCNF, cyclin fold, Cln2 fusion (human)
Method: yeast growth competition, sequencing
Medium: yeast
Notes: strong parent motif
Relative to: not given
Direction: higher = stronger binding
Quantity: normalised enrichment score
Parent: WEE1 docking peptide (human); HKTFRKLRLFDTP
L9V: 1.42
K2D: 1.87
K2S: 2.54
R5T: 2.39
F4N: 5.56
D11K: 2.56
P13D: 2.81
T12E: 3.75
D11L: 2.59
R5D: 0.828
H1M: 1.85

Series 5
Target: RNA binding protein fox-1 homolog 2, RRM domain, GST-SBP tag (RBFOX2, Homo sapiens, UniProt O43251-10, residues 100-194)
Method: RNA Bind-n-Seq
Molecule type: RNA
Medium: in vitro
Concentration: 365 nM
Notes: natural RNA segment, single round, ends assumed
Relative to: no-protein control
Direction: higher = stronger binding
Quantity: RBNS enrichment (R)
Constant ends, left off below: GGGAGUUCUACAGUCCGACGAUC … UGGAAUUCUCGGGUGCCAA
Target sequence (chain): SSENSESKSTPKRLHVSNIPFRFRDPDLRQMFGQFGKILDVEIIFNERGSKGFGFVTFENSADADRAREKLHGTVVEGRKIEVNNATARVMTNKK
AGGAGUGCCACUUUCCAGCUCCACUUCAAAUUCCUUAAAAUAUAACUGAGAUUGCUGUGGGGAGGGAGGAGGGCAGAGGCUGCGGUUUGACUUUUUAAUUUUUCUUUUGU: 0.574
CAGGCACACACCCUGCCCAUUGCAGGUGGCUCUUACAGCUCUCUGGUGCCAGCACGGGAUCCCUGAAGUGACUCAGCCAGGCAGACAUGAGACAUGGCGGAGUGUCCAAA: 1.11
GAGAAAGGUACACAGUUGCCCGGUUGGGAAUGUGCUUGGCGCUGACCCUGCGGGCAUCUGACUGGUCUUCCAGCUCAGGAAAAAGAAUUUGAAAGAGGCUUAGCGUGAAG: 0.353
AGUGGUUCUUUGAAGCUUAGUGAGGCGGAGGCUGCCAGUGUUGGUACCUGUGGAUUUUCCAAUAGUGAGGGUUAGCUCUGCCUCCAGGGCCCGCUAAGUUCUGCUGAGCA: 0.971
GCAUUGAUUUAUGUUCCAGACAAAAAUAACACAAAUAAUAAUAUCCUUCGUUAUAACCACAAUGAGAUAAGUAUUGGCAUUAGUGUUCAGUGCCAUUUUAUACUUUCUCU: 0.455
UUUAUUUUAAAAACCAGUGGGAAAGAGUGGGGGGUUUCUUUUUAUGUCUGGGUCAUUCAGGCAGUACAUCUGAAUUAAGCUGAAUGUAGACAAAUAAAGAAAAACAAAAC: 0.577
GAGCCUUAGGAUGCAGCAUGCCUUCAGGAGACACUGCUGGACCUCAGCAUUCCCUUGAUAUCAGUCCCCUUCACUGCAGAGCCUUGCCUUUCCCCUCUGCCUGUUUCCUU: 8.6
CCCAAAGCAGUCAUGGUGCACAUCCUAACUUUGGGGUUGGCGGUGAGCCGGCCCCACUCUCUGGGUCACCUGACUUUGCUCCCGACGACUCGGCUCCCUGCCGAGGCUCA: 0.209
